{"data": "Assay results gathered from unrelated publications", "note": "Each numbered part is a random draw from the data of one study; scales do not carry over between parts. Substitutions count along the parent as printed."}
{"data": "Sample 1", "target": "Histone acetyltransferase KAT6A, both winged helices, GST fusion (KAT6A, Homo sapiens, UniProt Q92794, residues 1-181)", "method": "protein binding microarray", "molecule type": "double-stranded DNA, one strand shown", "sample": "in vitro", "tested at": "not given", "setting": "8-mer, flanks averaged, mean of 2 arrays, mostly near background", "baseline": "not given", "reading": "higher = stronger binding", "Residues (chain)": "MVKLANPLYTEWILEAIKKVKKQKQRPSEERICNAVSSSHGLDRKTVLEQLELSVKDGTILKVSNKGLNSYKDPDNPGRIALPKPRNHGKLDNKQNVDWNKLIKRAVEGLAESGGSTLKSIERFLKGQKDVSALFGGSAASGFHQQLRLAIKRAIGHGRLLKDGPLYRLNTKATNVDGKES"}
{"Sequence": "ATCGGGGC", "E-score": 0.145}
{"Sequence": "GTCATCGA", "E-score": -0.0239}
{"Sequence": "AACCCTTA", "E-score": -0.117}
{"Sequence": "GATTTTAC", "E-score": -0.061}
{"Sequence": "AGACCGAT", "E-score": 0.0219}
{"Sequence": "ACAGTCAC", "E-score": -0.106}
{"Sequence": "AGACCACG", "E-score": -0.113}
{"Sequence": "AGGCACTG", "E-score": -0.23}
{"Sequence": "CTCTCACC", "E-score": -0.0215}
{"Sequence": "CTGTCCAA", "E-score": -0.027}
{"Sequence": "ATCCTAAT", "E-score": -0.0524}
{"Sequence": "ACAAATCC", "E-score": -0.115}
{"Sequence": "GATCATGC", "E-score": -0.131}
{"Sequence": "CGGTCTCA", "E-score": 0.0821}
{"Sequence": "CTGTTGCC", "E-score": -0.115}
{"Sequence": "CATTATCA", "E-score": -0.0506}
{"Sequence": "ACCGGAAC", "E-score": 0.192}
{"Sequence": "ACCTTGCT", "E-score": -0.282}
{"Sequence": "CACGAAAC", "E-score": 0.0829}
{"Sequence": "ATCTAAGC", "E-score": -0.0317}
{"Sequence": "ACCGACTC", "E-score": 0.0485}
{"Sequence": "GGAGACAC", "E-score": -0.153}
{"Sequence": "AGTACTAA", "E-score": -0.161}
{"Sequence": "AAACAAAG", "E-score": -0.11}
{"Sequence": "CTTCGTTC", "E-score": -0.236}
{"data": "Sample 2", "target": "PABPC1L2, full length, GST fusion (mouse, UniProt A0ABA7IW68)", "method": "RNAcompete", "molecule type": "RNA", "sample": "in vitro", "tested at": "20 nM", "setting": "7-mer, probes averaged, single round", "baseline": "mean of 7-mers", "reading": "higher = stronger binding", "Construct (chain)": "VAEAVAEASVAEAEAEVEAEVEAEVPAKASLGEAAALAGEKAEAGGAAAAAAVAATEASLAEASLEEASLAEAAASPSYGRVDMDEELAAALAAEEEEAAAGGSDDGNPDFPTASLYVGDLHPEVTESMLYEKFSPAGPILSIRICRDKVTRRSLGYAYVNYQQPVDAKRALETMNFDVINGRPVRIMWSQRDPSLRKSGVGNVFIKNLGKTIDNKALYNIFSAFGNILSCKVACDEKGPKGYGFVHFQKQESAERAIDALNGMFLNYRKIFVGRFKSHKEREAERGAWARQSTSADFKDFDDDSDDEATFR"}
{"Sequence": "AGCAUGC", "7-mer Z-score": -0.0373}
{"Sequence": "CCGGCUG", "7-mer Z-score": -0.316}
{"Sequence": "GACGCAC", "7-mer Z-score": -0.13}
{"Sequence": "GUCGUGG", "7-mer Z-score": -0.151}
{"Sequence": "UUGUCUU", "7-mer Z-score": -0.463}
{"Sequence": "CAGGCUU", "7-mer Z-score": -0.117}
{"Sequence": "UAAGCCG", "7-mer Z-score": -0.211}
{"Sequence": "AUGGGAG", "7-mer Z-score": 0.263}
{"Sequence": "AAAGCUG", "7-mer Z-score": 0.804}
{"Sequence": "UAGUACU", "7-mer Z-score": -0.144}
{"Sequence": "GGACAGU", "7-mer Z-score": 0.0551}
{"Sequence": "ACUCCCG", "7-mer Z-score": -0.251}
{"Sequence": "CCCCGUG", "7-mer Z-score": -0.44}
{"Sequence": "GUCAAUG", "7-mer Z-score": -0.313}
{"Sequence": "ACCUCCC", "7-mer Z-score": -0.373}
{"Sequence": "UCGAUGC", "7-mer Z-score": -0.204}
{"data": "Sample 3", "Sequence": "PKRAKRKLYTSEISSP", "molecule type": "peptide", "reading": "direction not given"}
{"tested on": "Saccharomyces cerevisiae", "assay": "binding, yeast competitive growth sequencing", "test system": "cyclin B3-Cln2 fusion strain", "setting": "peptide tiling library", "enrichment score": -1.37}
{"tested on": "human cyclin A2", "assay": "competitive growth deep sequencing", "test system": "Saccharomyces cerevisiae, cyclin A2-Cln2 fusion strain", "setting": "peptide tiling library", "enrichment score": 0.622}
{"tested on": "Saccharomyces cerevisiae", "assay": "mating pheromone growth arrest, pooled competitive growth deep sequencing", "test system": "no Cln2 overexpression", "setting": "peptide tiling library", "enrichment score": -0.156}
{"tested on": "Saccharomyces cerevisiae", "assay": "binding, yeast competitive growth sequencing", "test system": "cyclin A1-Cln2 strain, peptide tiling library", "enrichment score": 0.1}
{"data": "Sample 4", "target": "RING finger protein unkempt homolog, zinc fingers 1-6, GST-SBP tag (UNK, Homo sapiens, UniProt Q9C0B0, residues 30-357)", "method": "RNA Bind-n-Seq", "molecule type": "RNA", "sample": "in vitro", "tested at": "not given", "setting": "RNA with constant flanks, human and mouse sites, ends assumed", "baseline": "input RNA pool", "reading": "higher = stronger binding", "Construct (chain)": "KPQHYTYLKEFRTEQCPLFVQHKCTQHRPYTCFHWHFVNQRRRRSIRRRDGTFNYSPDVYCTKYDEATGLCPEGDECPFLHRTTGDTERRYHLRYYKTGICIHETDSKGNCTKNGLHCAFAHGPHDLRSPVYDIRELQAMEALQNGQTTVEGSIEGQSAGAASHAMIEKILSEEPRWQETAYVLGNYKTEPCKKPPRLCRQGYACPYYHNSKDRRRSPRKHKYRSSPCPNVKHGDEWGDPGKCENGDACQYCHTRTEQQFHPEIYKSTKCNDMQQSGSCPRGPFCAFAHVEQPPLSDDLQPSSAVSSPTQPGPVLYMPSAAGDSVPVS"}
{"Sequence": "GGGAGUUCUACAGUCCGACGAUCCUCUAUGGGCCUCGCAGAGUUGAAAUAAUGGAAGAGGAAAGUGAACAGUAAUCUUCAUUUUAGUAUUUAUGCUUAGAUGUGAAAAUAAAUGUUAUUUGUUGAUCAUUUCUAUAAUCCAGACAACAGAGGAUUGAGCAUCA", "bound/input enrichment": "4.81 ratio"}
{"Sequence": "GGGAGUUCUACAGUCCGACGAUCUCCCAGCCCUAGUGACCUUGUCUUCCCAUGGGCUUUUUUCCCUUCCUAGUGUCUGCAGGCUAGGUGCCUCCUCCAUAGGUGGUCCUGCUUUCUGUUCCUGGGGUUAGGGUGGCCCUCUCCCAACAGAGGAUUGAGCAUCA", "bound/input enrichment": "0.258 ratio"}
{"Sequence": "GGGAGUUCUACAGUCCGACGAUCGUGGGAGAGUGGGGAGCCCGUCUUCUGCUGAGUGCUGCCGCCCCUUCCCAGGACAGCGGAGGUGGAACUUCGUCGCGCUGCAACCCCCGGCUCGGGAUCCUGGGGCGUCCUUUGGCAGUCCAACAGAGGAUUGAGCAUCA", "bound/input enrichment": "0.138 ratio"}
{"Sequence": "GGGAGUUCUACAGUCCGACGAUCGGACGCGCAGACACGUUGUCUCUUCCUUCUUUUUGCCCCCUUUCCCCUGCUCAGGGCCUCGCUGGGAGGCGAGUGCUCCUCCUCAGGCCGCGGCUUCCAGAAGUAGCCUCGGAGUCCCGGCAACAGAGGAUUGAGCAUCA", "bound/input enrichment": "0.498 ratio"}
{"Sequence": "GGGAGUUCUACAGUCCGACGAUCAUUAAUAGGUAUAAGGAUUUUUCUUAUUAAUCUAAUAAAAUUCCUUAAUAGGAAUUUCCAUAGCUUAAGAGUGGUUUAUUUUAUCUGCAUCUUCUUUGGUGAUUGCAAAUCCCUUGUGAUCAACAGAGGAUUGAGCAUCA", "bound/input enrichment": "0.883 ratio"}
{"Sequence": "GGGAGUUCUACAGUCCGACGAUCGCCAUCACGACACUGCAUAAUCUCCUGCUCCAUCAGGAAGGAGCUAAAAUGGCAGUGCGCCUAGCUGGUGGACUGCAGAAAAUGGUUGCUUUGCUCAACAAAACAAACGUGAAAUUCUUGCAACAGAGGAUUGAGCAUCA", "bound/input enrichment": "0.0568 ratio"}
{"Sequence": "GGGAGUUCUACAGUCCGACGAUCAGGAUUAAUCUUAAGGAUUGUAUAAUUCAUUAAAGCUGUGGUCUUUCCAUGUGGAGACUGAUAGAAAAUAAUUUUGUCCCAAGUCUUAUUUGCUGACUUUUUCUGUCAUGAGUGAGAUUGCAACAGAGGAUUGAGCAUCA", "bound/input enrichment": "0.293 ratio"}
{"Sequence": "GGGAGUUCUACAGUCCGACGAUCGUAAAAGAAGAACAACUUAAAAAUUCUGCAGAGGAAGAAGUACUAUCAUCAGAAAAACAAUUAAUUAAAAUGGAAAAGAAGGAAGAAGAAGAAAAUGGAGAAAGACCUAGAAAGAAAAAGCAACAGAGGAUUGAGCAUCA", "bound/input enrichment": "2.15 ratio"}
{"Sequence": "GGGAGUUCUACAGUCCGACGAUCGGCACAUUUCCUGAUGCUCAGCUUCCAUCCAAAAGGAUCAUUGGCCCCAAAAACUAUGAGUUUUUGAAGUCGAAGAGAGAGGAGUUCCAGGAGUAUCUGCAGAAACUUGUGCAGCACCCGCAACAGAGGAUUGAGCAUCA", "bound/input enrichment": "0.103 ratio"}
{"Sequence": "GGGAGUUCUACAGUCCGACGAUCAGAGAACAACACAUCCGGAGAGACAAAGCCACCAGCAACAUCUGCACGGCUCAGGCCCUUUUAGCCAACAUGGCUGCCAUGUUCGCCAUUUACCAUGGAUCCCAGGGGCUGAAGCACAUUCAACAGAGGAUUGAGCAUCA", "bound/input enrichment": "0.255 ratio"}
{"Sequence": "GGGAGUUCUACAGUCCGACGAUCGGCCUGGAGUUCGGCAAGUUGCCAUUUGGUGCCUGUGAAGAUCCUAUCAGUGAACUCCAUUUAGCAACAACGUGGCCUCAUUUGACAGAAGGGAUCAUUGUAGAUAAUGAUGUUUAUUCUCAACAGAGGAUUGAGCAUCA", "bound/input enrichment": "1.37 ratio"}
{"data": "Sample 5", "target": "ABI1, truncated, D143A, DHFR fusion (Arabidopsis thaliana)", "method": "DHFR PCA, deep sequencing", "sample": "yeast", "setting": "methotrexate growth selection, single substitutions", "together with": "(+)-ABA 0.11 µM", "baseline": "wild-type fitted maximum", "reading": "higher = stronger binding", "starting sequence": "PYL1, truncated, DHFR fusion (Arabidopsis thaliana); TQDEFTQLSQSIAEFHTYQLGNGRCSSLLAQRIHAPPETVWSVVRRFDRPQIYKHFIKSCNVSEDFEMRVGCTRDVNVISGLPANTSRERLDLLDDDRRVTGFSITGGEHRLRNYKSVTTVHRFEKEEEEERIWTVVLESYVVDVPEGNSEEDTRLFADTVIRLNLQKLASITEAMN"}
{"Substitution": "L29N", "relative binding score": "6.09%"}
{"Substitution": "K58C", "relative binding score": "2.52%"}
{"Substitution": "L138R", "relative binding score": "-0.31%"}
{"Substitution": "S80G", "relative binding score": "7.89%"}
{"Substitution": "V40M", "relative binding score": "-7.55%"}
{"Substitution": "F124N", "relative binding score": "1%"}
{"Substitution": "V43M", "relative binding score": "8.19%"}
{"Substitution": "F5R", "relative binding score": "14.2%"}
{"Substitution": "A84Y", "relative binding score": "93.7%"}
{"Substitution": "F56T", "relative binding score": "-7.09%"}
{"Substitution": "W134M", "relative binding score": "38.3%"}
{"Substitution": "R113S", "relative binding score": "14.8%"}
{"Substitution": "G23C", "relative binding score": "-8.84%"}
{"Substitution": "W41T", "relative binding score": "-4.75%"}
{"Substitution": "A84F", "relative binding score": "84.5%"}
{"Substitution": "V161D", "relative binding score": "5.84%"}
{"Substitution": "H34G", "relative binding score": "9.39%"}
{"Substitution": "T17H", "relative binding score": "-1.73%"}
